# Measured values pooled from the literature.
# Every numbered part comes from another study and shows a few of its results, in no order. Changes are numbered by the printed parent chain.

# Series 1
# Target: Runt-related transcription factor 1, full length (RUNX1, Homo sapiens, UniProt Q01196-8, residues 1-480)
# Technique: protein-binding microarray
# Form: hairpin DNA
# Sample: in vitro
# Concentration: not given
# Notes: whole hairpin DNA, median over replicate spots
# Baseline: not given
# Reading: higher = stronger binding
Strand,median fluorescence
GAGGCCTGTCGCGGTTGGCCTCCTGGCCAACCGCGACAGGCCTCACACTC (5mC at 19),2700 a.u.
CTCAGTCCTGTGGGCTGGACTCCTGTCCAGCCCACAGGACTGAGACACTC (5mC at 7),1870 a.u.
GAGGCCCGACCGCAACAGCCTCCTGGCTGTTGCGGTCGGGCCTCACACTC (5mC at 7),4970 a.u.
GAGGCCTCTTGCGGTTGGCCTCCTGGCCAACCGCAAGAGGCCTCACACTC (5mC at 8),5490 a.u.
GAGGCCTGCGGCGGTTGGCCTCCTGGCCAACCGCCGCAGGCCTCACACTC (5mC at 9),2780 a.u.
CTCAGTTCTGTGCGCTGGACTCCTGTCCAGCGCACAGAACTGAGACACTC (5mC at 13),1720 a.u.
CTCAGCGCTGTGGGCTGGACTCCTGTCCAGCCCACAGCGCTGAGACACTC (5mC at 38),1930 a.u.
GAGGCCTGTTGTGGTGGGCCTCCTGGCCCACCACAACAGGCCTCACACTC (5mC at 29),2130 a.u.
GAGGCCTGTTGCGGTTGGCCTCCTGGCCAACCGCAACAGGCCTCACACTC (5mC at 37),6220 a.u.
GAGGCCTGTTGCGGTTGGCCTCCTGGCCAACCGCAACAGGCCTCACACTC (5mC at 28),6760 a.u.
GAGGCCCAACCGCCGCAGCCTCCTGGCTGCGGCGGTTGGGCCTCACACTC (5mC at 30),3000 a.u.
GAGGCCTGTTGTGATTGGCCTCCTGGCCAATCACAACAGGCCTCACACTC,1650 a.u.
GAGGCCTGTTGCCGTTGGCCTCCTGGCCAACGGCAACAGGCCTCACACTC (5mC at 13),1630 a.u.
GAGGCCAGTTGCGGTTGGCCTCCTGGCCAACCGCAACTGGCCTCACACTC,6150 a.u.
CTCAGTTCTCTGGGCTGGACTCCTGTCCAGCCCAGAGAACTGAGACACTC (5mC at 10),1610 a.u.
GAGGCCTGTTGCGGCTGGCCTCCTGGCCAGCCGCAACAGGCCTCACACTC (5mC at 15),2320 a.u.

# Series 2
# Target: ABI1, truncated, D143A, DHFR fusion (Arabidopsis thaliana)
# Technique: DHFR PCA, deep sequencing
# Sample: yeast
# Notes: methotrexate growth selection, single substitutions
# Added: (+)-ABA 17 µM
# Baseline: wild-type fitted maximum
# Reading: higher = stronger binding
# Starting sequence: PYL1, truncated, DHFR fusion (Arabidopsis thaliana); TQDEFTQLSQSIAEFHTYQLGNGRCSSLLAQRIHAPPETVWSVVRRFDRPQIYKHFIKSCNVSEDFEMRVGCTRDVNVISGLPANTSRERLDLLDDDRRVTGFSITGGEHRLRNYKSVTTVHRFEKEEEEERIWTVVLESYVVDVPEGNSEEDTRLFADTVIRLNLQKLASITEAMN; partner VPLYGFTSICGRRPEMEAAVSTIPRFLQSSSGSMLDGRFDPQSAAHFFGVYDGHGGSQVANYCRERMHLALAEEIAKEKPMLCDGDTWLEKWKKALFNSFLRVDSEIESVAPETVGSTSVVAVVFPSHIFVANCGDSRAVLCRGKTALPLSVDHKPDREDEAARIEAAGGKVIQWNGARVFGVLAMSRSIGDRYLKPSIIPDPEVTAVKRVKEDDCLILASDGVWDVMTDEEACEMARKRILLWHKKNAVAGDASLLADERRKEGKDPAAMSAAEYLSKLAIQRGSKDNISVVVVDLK
Substitution,relative binding score [%]
T173W,18.9
F103W,21.1
P83D,38.9
D144E,51.3
T106E,63.4
S59Q,79.2
L138D,-10.4
F103S,2.64
I105R,-6.96
G102P,-0.989
E131D,91.4

# Series 3
# Target: Histone acetyltransferase KAT6A, winged helix 2, GST fusion (KAT6A, Homo sapiens, UniProt Q92794, residues 85-181)
# Technique: protein binding microarray
# Form: double-stranded DNA, one strand shown
# Sample: in vitro
# Concentration: not given
# Notes: 8-mer, flanks averaged, mean of 2 arrays, mostly near background
# Baseline: not given
# Reading: higher = stronger binding
# Construct (chain): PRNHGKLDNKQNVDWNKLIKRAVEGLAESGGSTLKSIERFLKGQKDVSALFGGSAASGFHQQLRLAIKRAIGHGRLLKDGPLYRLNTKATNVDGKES
Strand,E-score
CTTGTCGA,0.0126
ACCTCCCC,-0.0612
AACTTGAT,0.238
GACGATTA,-0.0751
ACCGTTAA,-0.179
AATGAAAA,0.0545
CTAGGCAC,-0.00257
GTTAAAAA,0.00867
GAGTTTAA,0.114
ATCGCGCG,0.201
CGTGTAAG,0.0789
AATTATTC,0.012
TGGTGCAA,-0.0297
ATCAGGCA,-0.0623
ACACGCCC,0.0474
CAGTCCAA,-0.152
CATTAAAG,0.05
AAAACACC,-0.00968
AGAGGGCG,0.14
CCGTGTAC,-0.0725
AGCCATAG,0.012
CGACCAAA,0.199
TTTATAAA,0.316
AATCGCGT,-0.0447
CCAGGTTC,-0.0817

# Series 4
# Target: Sal-like protein 4, full length isoform B (SALL4, Homo sapiens, UniProt Q9UJQ4-2, residues 1-616)
# Technique: universal PBM
# Form: double-stranded DNA, one strand shown
# Sample: in vitro
# Concentration: not given
# Notes: 8-mer, flanks averaged, mean of replicates
# Reading: higher = stronger binding
Strand,E-score
GAAGATAC,0.125
AGCAGCTG,-0.00542
AGGGACAC,-0.0728
ACCTTACA,0.0899
GCGTGTGA,-0.0358
AGCGTTGA,-0.157
CCATAAGG,0.0559
GTTAGACA,0.102
AATCTTGC,0.146
CCACGGAA,-0.0691
CTTCTCCA,-0.179
AGTTGAGA,-0.0415
GGGCACAC,-0.291
ATTCAGGA,0.0995
AAGCGTAT,0.00841
AAAGACGG,-0.0901

# Series 5
# Target: RNA binding protein fox-1 homolog 2, RRM domain, GST-SBP tag (RBFOX2, Homo sapiens, UniProt O43251-10, residues 100-194)
# Technique: RNA Bind-n-Seq
# Form: RNA
# Sample: in vitro
# Concentration: 365 nM
# Notes: natural RNA segment, single round, ends assumed
# Baseline: no-protein control
# Reading: higher = stronger binding
# Target sequence (chain): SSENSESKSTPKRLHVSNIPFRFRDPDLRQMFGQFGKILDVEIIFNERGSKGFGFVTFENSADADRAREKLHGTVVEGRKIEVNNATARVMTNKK
Strand,RBNS enrichment (R)
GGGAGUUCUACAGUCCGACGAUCAGGCAGACACUUUAGGUUGGUACUUUUAUUCUAAAAGCCUUUUUAAGGGUAAUCUUCCUUCUCUGAUUACAGGAGCUGAAAUUUGACUUUUCUAACAGGCUCAGUCCUUAUGGAAUUCUCGGGUGCCAA,0.272
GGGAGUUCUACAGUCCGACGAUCCCCAAGUCUCCUAGACCCCCAGGGAGCCAGUGAACUGUCACCUUCUCUUCAUCACAGAAUGAGUAAAAUCCCUGAACAAAUGCAUUGUGAACCCAUUCCCCACUCCCACCUGGAAUUCUCGGGUGCCAA,0.944
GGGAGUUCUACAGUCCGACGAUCUAGUUGUGUGGCGUGAACUCUGCCCGUGUGUUCUCAAAUUCCCCAGCUUGGGAAAUAGCCCUUGGUGUGGGUUUUAUCUCUGGUUUGUGUUCUCCGUGGUGGAAUUGACCUGGAAUUCUCGGGUGCCAA,0.483
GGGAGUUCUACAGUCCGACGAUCGUAUGUUGUUAGUUUUGAAAGACAUUCACUCAAGGAAAACACCAUCUCAACUUUGCCCGCUCACCAUGUCCCUUGCCCCCAUGUAGCCCAUUUCCCAGGUUAUGCUCUUUUGGAAUUCUCGGGUGCCAA,2.65
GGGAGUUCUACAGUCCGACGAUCCUGUCCCUAAAGGAAUGUGCGUCUAUGGCAGGUAGGCAACUCGGUCCUAUCACAUACCAAGUAGUGAGUGGAGAAAGUAUUUUCAGAUUCAAGAAAACUUUGGAAAGUCAUGGAAUUCUCGGGUGCCAA,0.328
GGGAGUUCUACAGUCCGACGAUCAGCCUGUCCCUGAAAGAGAAGAUGGCCAUGCCCUCCAUGUGUAAGAACAAUGCCAGGGCCCAGGAGGACCGCCUGCCCUGCCUGGGCCUUGGCUGGGCCUCUGGUUCUGAUGGAAUUCUCGGGUGCCAA,1.77
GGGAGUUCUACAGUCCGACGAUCUCUUCUGUAGCUUUGCCUCUAUCAGGGCUGGAGUGGUGCAGCCCCUGGCAUCUCAGACAUGGUUCCUGCCUCACUUGUGGGAGCUGGACCAGCCUGGGUUUCAUCUCCCAUGGAAUUCUCGGGUGCCAA,0.501
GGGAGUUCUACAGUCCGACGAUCAGGCAGUGCUGUUCUGCCCACCUACCCCUCUCCACCAGCCUACACUGCACCCUGGCUGGCAGGGGUGCUGCUGGCUGCUAGGGCCUAUACAAUGGAGGGCACCUCCUGUCUGGAAUUCUCGGGUGCCAA,0.619
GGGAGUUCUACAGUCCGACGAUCUUGCCAACUCCUCCAGCCACAGGCAAGGCCACGGCUCCGGGCUGUUGCGCUCUAAGGGUUCUGUGAUUGGAUGGAACAGAGCUGCUGGGGAGGAGACUGGAAGUUUCUGCUGGAAUUCUCGGGUGCCAA,1.61
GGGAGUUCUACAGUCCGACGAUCUUAUUGUAUAGAGCUGCUUCAAUUCUGAGUCCUCUGGACUUCCCCUGCCUAUCUGUUUGUUGUUGUUGUUGAAGACAGUAAAAUAAGUGUUUUCAAAUCUAUAUGUCUCCUGGAAUUCUCGGGUGCCAA,3.26
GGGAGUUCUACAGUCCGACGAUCGAUGGAGACAGCCUGCUUAAAGCAAAUCCGAAUUUAAAUAGGACAUUUACAUCGGAAAAGUCUCUCCCUACCUUAAUCCCCCAUUCUCUUGCUUUCAAAAUACAAGCACAUGGAAUUCUCGGGUGCCAA,0.418
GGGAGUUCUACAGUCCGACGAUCGGGCCCCUAGCCUUCCUGCUCCAAGAAACGGCCAUCCCAACAGGGGACUCUGCUACACUGUGCCUUUGUGGUCAGCCUCACUGACGGGGUCUGCAAGUAGCCAGGGCGUGUGGAAUUCUCGGGUGCCAA,0.257
